Results of several laboratories.
Numbered parts are unrelated; each lists some results of a single study. Changes are numbered by the printed parent chain.

Set 1 — method: DHFR PCA, dose-response; sample: yeast; with: (+)-ABA, dose series; direction: lower = more sensitive
Target: ABI1, truncated, D143A, DHFR fusion (Arabidopsis thaliana, UniProt P49597)
Notes: Hill fit, not affinity, not high confidence
Starting sequence: PYL1, truncated, DHFR fusion (Arabidopsis thaliana, UniProt Q8VZS8); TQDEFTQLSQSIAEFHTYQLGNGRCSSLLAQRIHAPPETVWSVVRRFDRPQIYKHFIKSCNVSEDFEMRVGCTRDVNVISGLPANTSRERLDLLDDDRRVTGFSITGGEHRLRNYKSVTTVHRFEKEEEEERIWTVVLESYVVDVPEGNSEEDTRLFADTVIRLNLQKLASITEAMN
Substitution	ABA EC50 [µM]
S27I	474
T119H	18.3
V76E	151
L82W	223
S140Y	304
I57E	701
A158H	241
F103K	4.65

Set 2 — method: RNA Bind-n-Seq; molecule type: RNA; sample: in vitro; concentration: not given; notes: 4-mer, random 30-nt RNA, single round; with: RocA, ADP, phosphate; relative to: input library; direction: higher = stronger binding
Target: ATP-dependent RNA helicase DDX3X, helicase core (DDX3X, Homo sapiens, UniProt O00571, residues 132-607)
Sequence of UniProt O00571 (132-607, looked up): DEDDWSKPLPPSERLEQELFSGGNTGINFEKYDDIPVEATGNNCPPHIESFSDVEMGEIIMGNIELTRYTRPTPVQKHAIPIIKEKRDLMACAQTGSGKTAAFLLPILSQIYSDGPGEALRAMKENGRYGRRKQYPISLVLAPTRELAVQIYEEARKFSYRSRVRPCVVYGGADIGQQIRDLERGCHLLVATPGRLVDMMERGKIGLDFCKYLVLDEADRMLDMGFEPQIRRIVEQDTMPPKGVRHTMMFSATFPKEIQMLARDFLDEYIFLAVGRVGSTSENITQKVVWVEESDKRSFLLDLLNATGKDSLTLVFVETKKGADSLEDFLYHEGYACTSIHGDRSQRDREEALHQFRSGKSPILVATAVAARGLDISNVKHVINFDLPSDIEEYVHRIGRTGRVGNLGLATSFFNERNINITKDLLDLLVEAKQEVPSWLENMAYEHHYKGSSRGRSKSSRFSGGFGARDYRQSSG
Oligonucleotide	4-mer enrichment
UACA	0.729 fold
CCGC	0.713 fold
AAAA	1.13 fold
GGGG	1.66 fold
GUUA	1.03 fold
CUGG	0.824 fold
UGAU	0.893 fold
AAGG	1.46 fold

Set 3 — read-out: binding; method: phage display NGS; molecule type: peptide; concentration: concentration not given; notes: panning round 2; relative to: input library
Target: UDP-N-acetylglucosamine--peptide N-acetylglucosaminyltransferase 110 kDa subunit (OGT, Homo sapiens, UniProt O15294)
Sequence of UniProt O15294 (whole entry, looked up): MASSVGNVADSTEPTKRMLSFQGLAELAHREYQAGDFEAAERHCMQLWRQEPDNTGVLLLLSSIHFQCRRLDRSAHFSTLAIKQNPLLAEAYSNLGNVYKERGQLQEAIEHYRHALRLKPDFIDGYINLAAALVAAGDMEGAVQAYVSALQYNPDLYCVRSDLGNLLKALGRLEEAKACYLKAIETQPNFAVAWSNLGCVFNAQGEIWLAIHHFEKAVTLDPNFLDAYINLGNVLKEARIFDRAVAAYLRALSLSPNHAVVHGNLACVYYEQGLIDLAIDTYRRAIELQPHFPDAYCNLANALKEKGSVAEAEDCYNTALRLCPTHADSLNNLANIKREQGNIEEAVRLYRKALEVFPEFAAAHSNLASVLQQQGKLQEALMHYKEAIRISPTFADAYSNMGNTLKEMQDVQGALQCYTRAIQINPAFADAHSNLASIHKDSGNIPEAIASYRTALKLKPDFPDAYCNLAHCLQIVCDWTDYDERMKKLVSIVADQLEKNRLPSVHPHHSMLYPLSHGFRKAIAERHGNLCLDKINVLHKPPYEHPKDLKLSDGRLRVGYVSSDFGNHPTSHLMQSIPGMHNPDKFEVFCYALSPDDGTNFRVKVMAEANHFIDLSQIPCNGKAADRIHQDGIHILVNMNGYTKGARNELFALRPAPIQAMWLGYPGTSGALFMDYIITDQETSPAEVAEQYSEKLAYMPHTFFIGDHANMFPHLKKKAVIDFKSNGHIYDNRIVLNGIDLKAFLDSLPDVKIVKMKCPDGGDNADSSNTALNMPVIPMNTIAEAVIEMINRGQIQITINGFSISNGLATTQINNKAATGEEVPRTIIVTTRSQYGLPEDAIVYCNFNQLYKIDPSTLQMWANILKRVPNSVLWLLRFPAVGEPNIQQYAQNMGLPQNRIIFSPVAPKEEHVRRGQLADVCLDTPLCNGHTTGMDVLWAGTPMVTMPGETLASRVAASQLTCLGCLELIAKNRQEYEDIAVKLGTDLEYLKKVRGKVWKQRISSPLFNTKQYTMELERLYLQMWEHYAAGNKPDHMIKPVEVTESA
Molecule	enrichment fold change
DSGMHWMHRHMHGWE	9.09
AFSPFFPVYSIEIRR	9.8
HIQEMHWHQINHEFT	2.89
TYRHHNHHPLGEADV	11.7
QSDFLPKYQLDLFSY	13
QAQFMPVYQMQSMAR	4.21
HPVYHQVDTIQPHHH	4.88
EQHFPPAYLITYKSR	16.1
VRQHHHQNAGWHMYH	6.24
QSMGFSYPPAYLIKY	4.79
ANFMPYYEIMVSDP	3.06
HQEHKHEGHWAIFD	4.74
RPYDMAYAPVYMIKY	6.01
VTPKDRYLPKYTITF	18.3
SYVHHPPHWWDKHVS	6.13
HYDHQHRFPQLAKSA	4.06
INPPWHHVHRHHSWA	4.81
HTEAHVNRHRHEHQI	5.57

Set 4 — method: universal PBM; molecule type: double-stranded DNA, one strand shown; sample: in vitro; concentration: not given; direction: higher = stronger binding
Target: Sal-like protein 4, full length isoform B (SALL4, Homo sapiens, UniProt Q9UJQ4-2, residues 1-616)
Notes: 8-mer, flanks averaged, mean of replicates
Oligonucleotide	E-score
CCGCACAG	-0.241
GCGCGGAC	-0.227
ATACACGG	0.2
AGGATAGC	-0.0182
GACTTATA	0.336
ACTCGGGG	-0.197
CTTACATA	0.217
ATTGGGCA	0.0247

Repeated from above (set 2):
Oligonucleotide	4-mer enrichment
UACA	0.729 fold
CCGC	0.713 fold
AAAA	1.13 fold
